Experimental data pooled from the literature.
Numbered parts are unrelated; each lists some results of a single study.

Sample 1
Target: Prothrombin, mature alpha-thrombin (F2, Homo sapiens, UniProt P00734)
Technique: aptamer microarray, sandwich
Molecule type: DNA with 2'F-ANA
Matrix: in vitro
Concentration: 200 nM
Setting: whole 15-mer aptamer, many near background
Added: Cy3 exosite-II aptamer, 400 nM
Direction: higher = stronger binding
Oligonucleotide: GGTTGGTGTGGTTGG
| Modification | mean fluorescence intensity [a.u.] |
| --- | --- |
| 2'F-ANA at 2 4 6 11 12 | 368 |
| 2'F-ANA at 1 5 7 8 9 10 11 15 | 52.1 |
| 2'F-ANA at 2 3 6 7 8 10 13 15 | 299 |
| 2'F-ANA at 1 3 5 6 7 9 11 12 | 209 |
| 2'F-ANA at 1 6 12 15 | 380 |
| 2'F-ANA at 7 8 9 10 12 13 15 | 191 |

Sample 2
Target: Histone acetyltransferase KAT6A, winged helix 2, GST fusion (KAT6A, Homo sapiens, UniProt Q92794, residues 85-181)
Technique: protein binding microarray
Molecule type: double-stranded DNA, one strand shown
Matrix: in vitro
Concentration: not given
Setting: 8-mer, flanks averaged, mean of 2 arrays, mostly near background
Baseline: not given
Direction: higher = stronger binding
Construct (chain): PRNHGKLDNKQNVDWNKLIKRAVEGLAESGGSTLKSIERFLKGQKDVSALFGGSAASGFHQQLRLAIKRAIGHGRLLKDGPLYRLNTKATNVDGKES
| Oligonucleotide | E-score |
| --- | --- |
| GGCCAGAA | 0.143 |
| TAAACGGA | 0.0249 |
| TAAAGCGA | 0.0848 |
| CTAGTATC | 0.105 |
| ACGGGCAA | 0.0563 |

Sample 3
Target: RING finger protein unkempt homolog, zinc fingers 1-6, GST-SBP tag (UNK, Homo sapiens, UniProt Q9C0B0, residues 30-357)
Sequence of UniProt Q9C0B0 (30-357, looked up): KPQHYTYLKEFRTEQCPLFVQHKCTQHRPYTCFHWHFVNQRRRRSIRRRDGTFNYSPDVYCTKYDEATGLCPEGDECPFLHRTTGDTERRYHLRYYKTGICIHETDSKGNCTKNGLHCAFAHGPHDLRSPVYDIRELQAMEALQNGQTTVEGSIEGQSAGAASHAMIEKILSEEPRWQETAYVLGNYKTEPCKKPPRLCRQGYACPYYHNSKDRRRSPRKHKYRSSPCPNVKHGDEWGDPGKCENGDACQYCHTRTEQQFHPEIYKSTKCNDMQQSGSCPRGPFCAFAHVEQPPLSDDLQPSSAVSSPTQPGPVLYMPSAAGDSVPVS
Technique: RNA Bind-n-Seq
Molecule type: RNA
Matrix: in vitro
Concentration: not given
Setting: RNA with constant flanks, human-mouse chimeric sites, ends assumed
Baseline: input RNA pool
Direction: higher = stronger binding
All sequences stand within: GGGAGUUCUACAGUCCGACGAUC … CAACAGAGGAUUGAGCAUCA
| Oligonucleotide | bound/input enrichment |
| --- | --- |
| UCUUAACUUAUUCAUUUAACUUAUUUUUAGCACUUAGUAAAUAUUGUUAGUCUUAGACAAUAGCUCACAUUUUUUGAAAAGCAUGCUCUCCCUGUCCAUUUGUCUUAUAACAUGACCCAG | 560 ratio |
| UCAGUCUUUUUGUACAGCUUUGUAAAUUCUUAACAUUUUUAUAUUGCCAUGUUUAUUUUGUUUGGGUAAUUUGGUUCAUUAAGUACAAAACCAAAUAAAUGAACAUCUUUUUCAGUAAUU | 1.6 ratio |
| AAAGAACUUGCUGAUGAUGAAGAUGAGGAAGACAAUGAUGAUGUUGAACCUAUUACUGAAUUUCGAUUUGUGCCCAGUGAUAAGUCAGCAUUGGAGGCGAUGUUCACAGCAAUGUGUGAG | 0.299 ratio |
| UCUGGUCACACUCGUGUGUAUGGUGUUUGCUUUGUGGAUACUUCACUGGGCAAGUUUUUCAUCGGCCAGUUUUCGGAUGACCGCCACUGUUCCAGAUUUAGGACGCUAGUGGCUCACUAU | 0.229 ratio |
| UGUAGUUUCGCGGUUCAGGCUUUGUGUGUAGUUCACUUACGGUAUUAAAUUAUUAUUCUGCUUAGCUUAUAAUAAGGAUUACAAUUGUUAAAGAGGUUACUGAAUGUUACUCUGAAACUU | 0.5 ratio |

Mixed results
| Substance | target | test | system | setting | scale | endpoint | value |
| --- | --- | --- | --- | --- | --- | --- | --- |
| PhoQ, residues 284 288 289 292 302 303 SVHLDV | PhoP, residues 12 14 15 18 19 AGCRL (Escherichia coli, UniProt P23836) | Sort-seq, refers to: YFP reporter | E. coli | PhoQ-PhoP variant library, added: 10 µM Mg2+ | baseline: high Mg2+ state, higher = stronger signaling | fold induction | 15.5 |

For quick reference, copied from above (sample 2):
| Oligonucleotide | E-score |
| --- | --- |
| TAAACGGA | 0.0249 |
